Experimental data pooled from the literature.
Parts stem from different laboratories: compare values within a part only. “And” joins repeats or separate records; there may be more than shown.
Chain of UniProt Q9H3N8 (whole entry, looked up): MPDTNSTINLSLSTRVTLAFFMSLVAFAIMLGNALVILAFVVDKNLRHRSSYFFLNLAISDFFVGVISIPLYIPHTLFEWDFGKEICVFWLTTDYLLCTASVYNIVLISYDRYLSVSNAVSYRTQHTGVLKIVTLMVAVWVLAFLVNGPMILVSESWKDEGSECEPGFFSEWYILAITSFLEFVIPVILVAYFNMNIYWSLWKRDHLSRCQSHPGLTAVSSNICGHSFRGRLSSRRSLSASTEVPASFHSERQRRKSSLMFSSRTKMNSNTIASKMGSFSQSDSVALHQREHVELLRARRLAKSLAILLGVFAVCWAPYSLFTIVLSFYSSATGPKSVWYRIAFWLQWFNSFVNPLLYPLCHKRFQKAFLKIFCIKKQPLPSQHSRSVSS
Chain of UniProt P34969 (whole entry, looked up): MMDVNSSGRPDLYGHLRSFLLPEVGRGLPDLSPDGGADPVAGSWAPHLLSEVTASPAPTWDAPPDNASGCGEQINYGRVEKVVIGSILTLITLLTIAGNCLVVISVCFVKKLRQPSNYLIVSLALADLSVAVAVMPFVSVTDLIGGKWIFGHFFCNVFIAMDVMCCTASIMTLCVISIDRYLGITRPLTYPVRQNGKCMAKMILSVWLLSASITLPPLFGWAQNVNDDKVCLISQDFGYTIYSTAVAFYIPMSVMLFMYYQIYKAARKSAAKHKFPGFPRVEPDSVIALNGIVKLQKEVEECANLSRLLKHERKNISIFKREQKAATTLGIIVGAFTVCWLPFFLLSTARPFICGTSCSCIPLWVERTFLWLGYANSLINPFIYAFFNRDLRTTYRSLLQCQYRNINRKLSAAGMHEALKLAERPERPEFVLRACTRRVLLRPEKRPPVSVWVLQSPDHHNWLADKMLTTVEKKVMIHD
Chain of UniProt Q5BJF2 (whole entry, looked up): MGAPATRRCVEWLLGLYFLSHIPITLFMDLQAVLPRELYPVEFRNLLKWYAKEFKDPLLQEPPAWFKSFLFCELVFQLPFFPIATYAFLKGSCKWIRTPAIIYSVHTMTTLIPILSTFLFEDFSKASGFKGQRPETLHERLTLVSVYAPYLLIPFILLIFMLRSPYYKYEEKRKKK
Chain of UniProt P08912 (whole entry, looked up): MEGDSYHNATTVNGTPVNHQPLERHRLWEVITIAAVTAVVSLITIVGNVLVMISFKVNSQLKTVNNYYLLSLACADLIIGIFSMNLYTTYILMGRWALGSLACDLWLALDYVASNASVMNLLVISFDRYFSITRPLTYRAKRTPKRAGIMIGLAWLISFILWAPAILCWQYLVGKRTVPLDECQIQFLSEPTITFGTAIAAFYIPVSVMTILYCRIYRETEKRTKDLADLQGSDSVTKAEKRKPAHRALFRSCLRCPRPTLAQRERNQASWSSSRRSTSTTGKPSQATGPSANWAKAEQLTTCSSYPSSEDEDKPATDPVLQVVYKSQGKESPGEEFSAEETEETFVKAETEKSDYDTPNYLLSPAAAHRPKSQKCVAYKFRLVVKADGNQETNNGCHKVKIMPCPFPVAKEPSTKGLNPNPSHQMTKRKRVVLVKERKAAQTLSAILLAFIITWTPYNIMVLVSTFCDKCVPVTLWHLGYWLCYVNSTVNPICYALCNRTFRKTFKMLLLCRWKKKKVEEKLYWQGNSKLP
Chain of UniProt P21917 (whole entry, looked up): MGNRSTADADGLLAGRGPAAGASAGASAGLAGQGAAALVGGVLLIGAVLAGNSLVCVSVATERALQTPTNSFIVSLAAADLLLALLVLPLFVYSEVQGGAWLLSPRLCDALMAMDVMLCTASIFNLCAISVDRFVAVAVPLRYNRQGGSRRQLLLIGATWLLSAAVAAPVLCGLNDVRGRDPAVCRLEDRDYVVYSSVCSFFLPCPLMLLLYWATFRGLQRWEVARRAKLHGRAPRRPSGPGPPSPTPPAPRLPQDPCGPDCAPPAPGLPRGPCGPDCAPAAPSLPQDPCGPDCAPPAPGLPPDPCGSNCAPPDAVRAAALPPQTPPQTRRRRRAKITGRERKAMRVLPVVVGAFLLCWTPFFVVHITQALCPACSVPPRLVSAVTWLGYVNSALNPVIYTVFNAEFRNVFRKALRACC

Sample 1
Organism: Sarcocystis neurona
Read-out: parasite activity
Concentration: 10 µM
Time: 96 h
Under activity class, CCOC(=O)C1(c2ccccc2)CCN(CCC(C#N)(c2ccccc2)c2ccccc2)CC1 is recorded as “inactive”.
CC(C)CC(N(C)C)C1(c2ccc(Cl)cc2)CCC1 (stereo not shown) — result for activity class: “inactive”.
C[C@]12CCC(=O)C[C@@H]1CC[C@@H]1[C@@H]2CC[C@@]2(C)[C@H]1CC[C@]2(C)O: activity class “inactive”.
Under activity class, C[C@]12Cc3c[nH]nc3C[C@@H]1CC[C@@H]1[C@@H]2CC[C@@]2(C)[C@H]1CC[C@]2(C)O is recorded as “inactive”.
Cc1ccc(-c2nc3ccc(C)cn3c2CC(=O)N(C)C)cc1 — result for activity class: “inactive”.
Under activity class, CNC1=Nc2ccc(Cl)cc2C(c2ccccc2)=[N+]([O-])C1 is recorded as “inactive”.

Sample 2
Target: Bromodomain-containing protein 4, BD1 (BRD4, Homo sapiens, UniProt O60885)
Concentration: 50 µM
The inhibition of C[C@]12O[C@H](C[C@]1(O)CO)n1c3ccccc3c3c4c(c5c6ccccc6n2c5c31)CNC4=O is reported as 18.9%.
C=CCN(/C=C1/C(=O)O[C@H](COC)[C@@]2(C)C1=C(O)C(=O)C1=C2[C@H](OC(C)=O)C[C@]2(C)C(=O)CC[C@@H]12)CC=C gave an inhibition of 1.55%.
COc1ccc2c(c[n+](C)c3c4cc5c(cc4ccc23)OCO5)c1OC gave an inhibition of 19.9%.

Sample 3
Target: Calcium/calmodulin-dependent protein kinase type II subunit alpha (CAMK2A, Homo sapiens, UniProt Q9UQM7)
Chain of UniProt Q9UQM7 (whole entry, looked up): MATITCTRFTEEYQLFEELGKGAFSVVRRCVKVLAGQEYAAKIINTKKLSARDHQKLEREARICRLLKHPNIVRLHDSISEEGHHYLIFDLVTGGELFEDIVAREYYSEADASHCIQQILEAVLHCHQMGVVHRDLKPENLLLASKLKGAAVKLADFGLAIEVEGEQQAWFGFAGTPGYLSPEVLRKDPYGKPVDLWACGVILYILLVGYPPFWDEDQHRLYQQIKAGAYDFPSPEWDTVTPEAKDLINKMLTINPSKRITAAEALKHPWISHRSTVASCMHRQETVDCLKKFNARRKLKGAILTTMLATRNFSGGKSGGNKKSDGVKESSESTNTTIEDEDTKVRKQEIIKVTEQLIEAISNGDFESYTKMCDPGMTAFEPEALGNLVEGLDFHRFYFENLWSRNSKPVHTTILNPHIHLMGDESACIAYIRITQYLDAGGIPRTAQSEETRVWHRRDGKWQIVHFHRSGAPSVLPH
Read-out: enzyme activity
Action: inhibitor
Concentration: 10 µM
The inhibition of Cc1ncc(CNC(=O)N(CCCl)N=O)c(N)n1 is reported as 4%.
CC(=O)O[C@@]12CO[C@@H]1C[C@H](O[C@@H]1OC[C@@H](O)[C@H](O)[C@H]1O)[C@@]1(C)C(=O)[C@H](O)C3=C(C)[C@@H](OC(=O)[C@H](O)[C@@H](NC(=O)c4ccccc4)c4ccccc4)C[C@@](O)([C@@H](OC(=O)c4ccccc4)[C@H]21)C3(C)C has an inhibition of -21%.
With C[C@]12CC[C@H](O)C[C@@]1(O)CC[C@@H]1[C@@H]2CC[C@]2(C)[C@@H](c3ccc(=O)oc3)[C@@H](O)[C@H]3O[C@]132 the inhibition was 1%.
COc1cc2occc2c2oc(=O)ccc12 gave an inhibition of -26%.
N[C@H](C(=O)O)c1cc(O)no1 has an inhibition of 40%.

Sample 4
SMILES: N#CC1(c2ccccn2)CCN(Cc2cc(C(=O)O)c(=O)n3ccccc23)CC1
Read-out: cell-free assay
Concentration: 10 µM
For Muscarinic acetylcholine receptor M2 (CHRM2, Homo sapiens, UniProt P08172): inhibition read -8.07%.
For D(1B) dopamine receptor (DRD5, Homo sapiens, UniProt P21918): inhibition read -2.87%.
For Muscarinic acetylcholine receptor M5 (CHRM5, Homo sapiens, UniProt P08912): inhibition read 4.74%.
It gave -1% for inhibition (Muscarinic acetylcholine receptor M1 (CHRM1, Homo sapiens, UniProt P11229)).
Beta-3 adrenergic receptor (ADRB3, Homo sapiens, UniProt P13945) — inhibition: -5.05%.
For Delta-type opioid receptor (OPRD1, Homo sapiens, UniProt P41143): inhibition read -20.9%.
Sigma intracellular receptor 2 (TMEM97, Homo sapiens, UniProt Q5BJF2) — inhibition: 5.17%.
The inhibition was -13.9% (Alpha-2C adrenergic receptor (ADRA2C, Homo sapiens, UniProt P18825)).
It gave -6.58% for inhibition (Muscarinic acetylcholine receptor M3 (CHRM3, Homo sapiens, UniProt P20309)).
It gave 18.5% for inhibition (Mu-type opioid receptor (OPRM1, Homo sapiens, UniProt P35372)).
D(4) dopamine receptor (DRD4, Homo sapiens, UniProt P21917) — inhibition: -8.33%.
The inhibition was 29.1% (Sigma non-opioid intracellular receptor 1 (SIGMAR1, Homo sapiens, UniProt Q99720)).
The inhibition was -10.7% (D(1A) dopamine receptor (DRD1, Homo sapiens, UniProt P21728)).
The inhibition was -6.86% (Alpha-2B adrenergic receptor (ADRA2B, Homo sapiens, UniProt P18089)).
For Alpha-1B adrenergic receptor (ADRA1B, Homo sapiens, UniProt P35368): inhibition read 6.68%.
It gave 47.3% for inhibition (Kappa-type opioid receptor (OPRK1, Homo sapiens, UniProt P41145)).
The inhibition was -27% (5-hydroxytryptamine receptor 7 (HTR7, Homo sapiens, UniProt P34969)).
It gave -33.2% for inhibition (Alpha-1A adrenergic receptor (ADRA1A, Homo sapiens, UniProt P35348)).
For 5-hydroxytryptamine receptor 6 (HTR6, Homo sapiens, UniProt P50406): inhibition read -20%.
For Alpha-1D adrenergic receptor (ADRA1D, Homo sapiens, UniProt P25100): inhibition read -5.73%.
Histamine H4 receptor (HRH4, Homo sapiens, UniProt Q9H3N8) — inhibition: -11.4%.

Sample 5
Target: DNA polymerase theta, ATPase domain (POLQ, Homo sapiens, UniProt O75417)
Chain of UniProt O75417 (whole entry, unmodified, looked up): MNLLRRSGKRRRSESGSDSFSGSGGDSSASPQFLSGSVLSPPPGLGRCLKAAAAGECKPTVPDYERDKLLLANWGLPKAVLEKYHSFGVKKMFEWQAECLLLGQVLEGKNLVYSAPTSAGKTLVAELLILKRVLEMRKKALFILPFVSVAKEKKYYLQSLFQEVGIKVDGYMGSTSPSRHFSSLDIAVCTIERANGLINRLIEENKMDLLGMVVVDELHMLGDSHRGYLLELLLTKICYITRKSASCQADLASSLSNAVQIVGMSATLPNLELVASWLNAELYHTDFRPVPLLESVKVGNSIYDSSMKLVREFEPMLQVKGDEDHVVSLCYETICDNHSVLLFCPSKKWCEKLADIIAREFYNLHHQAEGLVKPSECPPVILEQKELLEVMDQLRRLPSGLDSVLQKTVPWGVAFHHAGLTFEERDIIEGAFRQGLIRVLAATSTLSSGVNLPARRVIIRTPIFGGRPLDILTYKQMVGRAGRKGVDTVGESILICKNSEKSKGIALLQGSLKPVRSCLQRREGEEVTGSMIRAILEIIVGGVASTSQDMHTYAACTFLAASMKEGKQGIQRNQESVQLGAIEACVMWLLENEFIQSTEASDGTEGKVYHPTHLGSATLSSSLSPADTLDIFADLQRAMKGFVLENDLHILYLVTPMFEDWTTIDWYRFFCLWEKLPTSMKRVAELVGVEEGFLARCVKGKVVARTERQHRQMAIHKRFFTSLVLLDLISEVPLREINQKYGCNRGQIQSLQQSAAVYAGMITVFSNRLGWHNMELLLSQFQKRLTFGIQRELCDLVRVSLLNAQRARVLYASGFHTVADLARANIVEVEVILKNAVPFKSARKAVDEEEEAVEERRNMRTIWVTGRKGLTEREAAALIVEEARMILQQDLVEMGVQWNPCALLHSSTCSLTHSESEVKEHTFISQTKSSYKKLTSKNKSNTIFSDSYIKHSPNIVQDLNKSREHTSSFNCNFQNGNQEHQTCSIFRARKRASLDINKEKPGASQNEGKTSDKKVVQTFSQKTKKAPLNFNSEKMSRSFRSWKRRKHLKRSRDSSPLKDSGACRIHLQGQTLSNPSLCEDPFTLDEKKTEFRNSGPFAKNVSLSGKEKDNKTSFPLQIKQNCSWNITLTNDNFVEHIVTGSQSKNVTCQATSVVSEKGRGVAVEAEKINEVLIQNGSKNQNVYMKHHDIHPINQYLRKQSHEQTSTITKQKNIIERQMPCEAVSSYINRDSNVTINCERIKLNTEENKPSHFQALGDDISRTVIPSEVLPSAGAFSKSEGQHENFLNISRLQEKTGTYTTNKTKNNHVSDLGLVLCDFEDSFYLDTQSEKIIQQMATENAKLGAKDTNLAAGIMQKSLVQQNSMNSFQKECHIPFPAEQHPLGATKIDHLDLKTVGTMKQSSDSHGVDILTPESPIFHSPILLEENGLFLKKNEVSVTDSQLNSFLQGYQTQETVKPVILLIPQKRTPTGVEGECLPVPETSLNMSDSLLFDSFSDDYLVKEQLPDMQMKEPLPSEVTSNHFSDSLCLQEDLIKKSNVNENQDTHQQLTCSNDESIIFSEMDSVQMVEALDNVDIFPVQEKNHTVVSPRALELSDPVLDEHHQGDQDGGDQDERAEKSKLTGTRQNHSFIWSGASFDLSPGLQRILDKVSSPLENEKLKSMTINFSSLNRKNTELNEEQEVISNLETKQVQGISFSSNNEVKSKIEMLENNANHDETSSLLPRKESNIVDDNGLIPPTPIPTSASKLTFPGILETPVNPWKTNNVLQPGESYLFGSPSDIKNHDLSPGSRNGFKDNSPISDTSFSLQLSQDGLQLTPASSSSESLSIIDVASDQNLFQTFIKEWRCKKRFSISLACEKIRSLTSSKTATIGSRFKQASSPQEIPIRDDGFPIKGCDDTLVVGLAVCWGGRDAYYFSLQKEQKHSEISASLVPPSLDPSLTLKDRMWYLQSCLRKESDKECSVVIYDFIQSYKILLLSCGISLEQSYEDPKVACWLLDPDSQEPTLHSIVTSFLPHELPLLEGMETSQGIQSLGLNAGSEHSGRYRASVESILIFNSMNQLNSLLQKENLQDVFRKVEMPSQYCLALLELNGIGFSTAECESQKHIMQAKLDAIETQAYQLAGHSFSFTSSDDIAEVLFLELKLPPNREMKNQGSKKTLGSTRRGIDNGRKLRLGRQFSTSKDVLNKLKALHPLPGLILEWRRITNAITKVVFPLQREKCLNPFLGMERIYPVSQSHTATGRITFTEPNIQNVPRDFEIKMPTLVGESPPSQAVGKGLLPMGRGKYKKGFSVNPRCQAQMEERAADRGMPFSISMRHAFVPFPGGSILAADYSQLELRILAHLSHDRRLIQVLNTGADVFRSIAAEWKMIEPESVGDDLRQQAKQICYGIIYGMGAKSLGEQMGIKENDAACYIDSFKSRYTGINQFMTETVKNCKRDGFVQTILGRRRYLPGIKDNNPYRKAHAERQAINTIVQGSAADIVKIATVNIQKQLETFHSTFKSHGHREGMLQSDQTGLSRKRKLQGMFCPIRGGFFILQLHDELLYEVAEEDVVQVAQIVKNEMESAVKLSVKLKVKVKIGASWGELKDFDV
Read-out: enzyme activity
Action: inhibitor
Concentration: 77 µM
Relative to: untreated
N#C/C(=C\c1ccc(O)c(O)c1)C(N)=S gave a remaining activity of 92.3%.
Cc1c(N)nc([C@H](CC(N)=O)NC[C@H](N)C(N)=O)nc1C(=O)N[C@H](C(=O)N[C@H](C)[C@@H](O)[C@H](C)C(=O)N[C@H](C(=O)NCCc1nc(-c2nc(C(=O)NCCC[S+](C)C)cs2)cs1)[C@@H](C)O)[C@@H](O[C@@H]1O[C@@H](CO)[C@@H](O)[C@H](O)[C@@H]1O[C@H]1O[C@H](CO)[C@@H](O)[C@H](OC(N)=O)[C@@H]1O)c1cnc[nH]1 gave a remaining activity of 89.3%.
CC(Cc1ccc(O)cc1)NCC(O)c1cc(O)cc(O)c1 (stereo not shown) gave a remaining activity of 101%.
With O=C(NCNC(=O)NC1C(=O)NC(=O)N1CO)NC1C(=O)NC(=O)N1CO (stereo not shown) the remaining activity was 97.4%.
The remaining activity of Oc1ccc2c3c1O[C@H]1c4[nH]c5c(c4C[C@@]4(O)[C@@H](C2)N(CC2CC2)CC[C@]314)C[C@@]1(O)[C@H]2Cc3ccc(O)c4c3[C@@]1(CCN2CC1CC1)[C@H]5O4 is reported as 105%.
The remaining activity of CN[C@@H]1C[C@H]2O[C@@](C)([C@@H]1OC)n1c3ccccc3c3c4c(c5c6ccccc6n2c5c31)C(=O)NC4 is reported as 96.3% and 93.4% and 101%.
With C[C@@H]1O[C@H](C[N+](C)(C)C)C[C@H]1O the remaining activity was 100%.
With C[C@H]1CC[C@]2(NC1)O[C@H]1C[C@H]3[C@@H]4CC[C@H]5C[C@@H](O)CC[C@]5(C)[C@H]4CC[C@]3(C)[C@H]1[C@@H]2C the remaining activity was 109%.

Some of these lines once more (sample 1):
CC(C)CC(N(C)C)C1(c2ccc(Cl)cc2)CCC1 (stereo not shown) — result for activity class: “inactive”.
C[C@]12CCC(=O)C[C@@H]1CC[C@@H]1[C@@H]2CC[C@@]2(C)[C@H]1CC[C@]2(C)O: activity class “inactive”.
